Results from different studies.
Numbered parts are unrelated; each lists some results of a single study.

Set 1
Target: Ras GTPase-activating protein-binding protein 1, full length (G3BP1, Homo sapiens, UniProt Q13283)
Chain of UniProt Q13283 (whole entry, looked up): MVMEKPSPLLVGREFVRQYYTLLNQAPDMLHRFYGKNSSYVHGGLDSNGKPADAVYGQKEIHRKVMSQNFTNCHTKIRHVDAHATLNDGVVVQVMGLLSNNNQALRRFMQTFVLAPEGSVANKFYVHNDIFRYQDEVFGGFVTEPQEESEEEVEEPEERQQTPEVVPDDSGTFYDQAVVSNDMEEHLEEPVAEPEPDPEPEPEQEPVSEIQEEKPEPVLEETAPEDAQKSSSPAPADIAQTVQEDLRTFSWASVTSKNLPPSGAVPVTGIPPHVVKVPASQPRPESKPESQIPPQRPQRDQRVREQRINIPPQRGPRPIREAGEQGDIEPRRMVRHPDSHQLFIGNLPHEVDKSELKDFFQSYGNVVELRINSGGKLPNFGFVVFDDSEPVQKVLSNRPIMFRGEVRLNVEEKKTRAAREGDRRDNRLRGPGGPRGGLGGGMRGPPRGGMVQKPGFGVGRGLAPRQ
Method: RNA Bind-n-Seq
Molecule type: RNA
Matrix: in vitro
Concentration: 200 nM
Setting: whole 134-nt RNA, ends assumed
Added: 150 mM LiCl
Reference: input library
Direction: higher = stronger binding
Library: 7-deaza-guanosine replaces G
Shared flanks, not repeated: GGGAGUUCUACAGUCCGACGAUC … UGGAAUUCUCGGGUGUCAAGG
Sequence | log2 enrichment
CAAGUCCUGUGCUACACAUCGUAUGUACCGAAUCGGUUUGGUUUGGAAAAAAAGGAAAGUAUUAUGUUACGCCGUUCGGAUCUGCACUUC | -1.09
GCAGGAAGUAAAAACAAAUGGAAAUGCUUCGGAUAGUGGCAGGGGUGGGGGUUGCUAAGGAAAGGGUGGUAUGGGAGUGGGUAAAGAGUU | 0.107
CACAGACAACACGCACCCACACAGACACAGAGGGAAGGGGUUGGGAUGGGGACAGGGUUCACAGCAGGGCGGGGUAGGACCCCAGCCCCU | 0.0129
UGGGAGGUGGAUUUUGUUUAUUUUUUUAGCUCAUUGCCAGGGGUGGGAAUUUUUUUUUAAUAUGUGUCAUGAAUAAAGUUGUUUUUGAAA | 0.406
UCCUCAAGUCCUGUGCUACACAUCGUAUGUACCGAAUCGGAAAGGAGGUGGAAAGUAUUAUGUUACGCCGUUCGGAUCUGCACUUCCAGC | -1.2
UCUGAGGUCACCAAGCCUCCUCCUUGCUUGGAGAACUCCUCGCCUCCCUCCAGGAUUCCGGAGCCUGAAUCCCCAGCGAAGCCAAACGUC | -0.0464
CCUGUGCUACACAUCGUAUGUACCGAAUCGGCCCCCCCGGGCCCCCCCGGCCCCCCCGGGAAAGUAUUAUGUUACGCCGUUCGGAUCUGC | 0.0469
GUCCUGUGCUACACAUCGUAUGUACCGAAUCGGGGCCCCCGGGGCCCCCGGCCCCCGGGAAAGUAUUAUGUUACGCCGUUCGGAUCUGCA | -1.2

Set 2
Target: RNA binding protein fox-1 homolog 2, RRM domain, GST-SBP tag (RBFOX2, Homo sapiens, UniProt O43251-10, residues 100-194)
Method: RNA Bind-n-Seq
Molecule type: RNA
Matrix: in vitro
Concentration: 365 nM
Setting: natural RNA segment, single round, ends assumed
Reference: no-protein control
Direction: higher = stronger binding
Shared flanks, not repeated: GGGAGUUCUACAGUCCGACGAUC … UGGAAUUCUCGGGUGCCAA
Target sequence (chain): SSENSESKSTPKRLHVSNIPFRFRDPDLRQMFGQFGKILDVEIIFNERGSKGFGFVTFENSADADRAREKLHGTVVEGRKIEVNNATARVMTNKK
Sequence | RBNS enrichment (R)
ACCACUACACUUUUAGAAAGACAGAAAAAUGUAAGAAUUUGUUUUUACCAUAAUGAGUCUUAAGUAGGUUCAUGAUCUACAUUGGGGCCUGGGAUUAUUUUUUUAAUUUU | 0.602
GGUGACUCUGUGUGAACUGGCCUUUGGGAAAGAUCAGAGAGGGCAGAGGUGGCACAGGACAGUAAAGGAGAUGCUGUGCUGGCCUUCAGCCUGGACAGGGUCUCUGCUGA | 0.448
UGUCACACAAGCAUCUCAAAGUCAAAAGCCAUCUGGGGCUGCUGCUUCUGUUUCUCAGGCUCUGGGGAAAGGAAUCUCCCUCUCCUCUCACUUGAUUCCAAGUGUGGUUG | 0.378
GCCUUUGUCCGAAAAAUCUAUACUAAUGUGAAAAUUGACUAGAGACCCAAGAAAACCUGGAACUUUGGAUCAAUUUCUUUUUCAUAGGGGUGGAACUUGCACAGCAAAAA | 0.336
AGAGCCUGCUCCCCCACCCCCUCCCCAGGGGAGAGGGUCUGGAGAAGCAGUGAGCCGCAUCUUCUCCAUCUGGCAGGGUGGGAUGGAGGAGAAGAAUUUUCAGACCCCAG | 0.45
UUGUUGCUGUGCCAACAUCCUAGAUUGUACUUACACAACCUACAUGGUAUAGCCUACUACACACCUGGGCUGUGUGGCAUGGCCUAUUCCUCUUAGGCUACAAACCUGUA | 0.273
UAACCAUAAUACUGUGAUCAUUAUUUGGAAAUAUGUCCUAUGGAAAGAAUAAAAGCAUGUACUUCACAGCUAGCAUGUUCACAGAUUUGAAAGAAGUUUCAUUAAAAGCA | 4.28
AGUAUUAAUAGUAGCUCAUUCUCUCUAAAAAUUUACUGCCCACUGAUAGGAUGUUUUGUUUCCUUGAUAAAACAAAUGUAAAUGAGGAAUUUUAUUUGAAUUGGAAUAUU | 0.733

Set 3
Target: Centromere-binding protein 1, full length, His-tagged (CBF1, Saccharomyces cerevisiae, UniProt P17106, residues 1-351)
Chain of UniProt P17106 (whole entry, looked up): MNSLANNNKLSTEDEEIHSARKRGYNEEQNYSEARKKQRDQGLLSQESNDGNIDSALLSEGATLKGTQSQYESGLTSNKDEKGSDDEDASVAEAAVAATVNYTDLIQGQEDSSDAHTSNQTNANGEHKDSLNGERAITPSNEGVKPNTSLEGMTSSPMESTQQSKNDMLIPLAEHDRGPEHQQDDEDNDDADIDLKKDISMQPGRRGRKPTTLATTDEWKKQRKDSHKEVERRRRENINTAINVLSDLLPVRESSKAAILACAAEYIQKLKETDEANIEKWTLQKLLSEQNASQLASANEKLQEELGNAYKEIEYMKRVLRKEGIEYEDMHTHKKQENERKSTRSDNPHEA
Method: competition protein-binding microarray
Molecule type: double-stranded DNA, one strand shown
Matrix: in vitro
Concentration: 2 µM
Setting: whole 60-bp probe, lowest competitor level
Added: Pho4 competitor, 0.05 µM
Direction: higher = stronger binding
Shared flanks, not repeated: … GTCTTGATTCGCTTGACGCTGCTG
Sequence | fluorescence intensity [a.u.]
CTAACGAAGGTTTGCGAAGTGGGTGACAAGCCAAGT | 65.3
CGGGGTTAAGTTTGTCACTGAACTTGCTTGCAGCAG | 87.1
CGGGGTTAAGTTTGCTGTGTGGGTGGCTTGCAGCAG | 54.6
GTCTTGTCTCATTGCCTTGTGGGTGTCCCCACTTCA | 65.7
CCGAAATTTGCTTCACACGTGTCTGTTGATAAGCAA | 1480
AACCGTAGGATGTCCCACGTTCGACTTGAACTCGTT | 69.6
TTGTTTGCCTCCGTCGGTGTGACGGAGTTGTGGCCT | 59
CGTCCTAGTGATTGTCACACCACTTCCATGAGGAAG | 130
CGGGGTTAAGTTTTTCACGTGATCTGCTTGCAGCAG | 5340
ATGCGAGACTTGGATAACGTGTTGAGCATCGAAATA | 103
AAATTACTAAGTTGTCACCGTACTTACCCCGTATGA | 79.4
AAATTACTAAGTTGTAGTGTGGGTGACGCCGTATGA | 69.7
TGCGCAACAACTTGGAGCGTGGGTGTATGTCTAGAA | 65.1
TTAGCGTCAAGTACAAATGTGACGAAAATTTGAGGT | 110
CTTCTGTAAATTTGTATGGTGGGTGGACGCGCCCCG | 105
GTCTTGTCTCATTGAACTGTGGGTGTCCCCACTTCA | 78

Set 4
Target: PABPC1L2, full length, GST fusion (mouse, UniProt A0ABA7IW68)
Method: RNAcompete
Molecule type: RNA
Matrix: in vitro
Concentration: 20 nM
Setting: 7-mer, probes averaged, single round
Reference: mean of 7-mers
Direction: higher = stronger binding
Residues (chain): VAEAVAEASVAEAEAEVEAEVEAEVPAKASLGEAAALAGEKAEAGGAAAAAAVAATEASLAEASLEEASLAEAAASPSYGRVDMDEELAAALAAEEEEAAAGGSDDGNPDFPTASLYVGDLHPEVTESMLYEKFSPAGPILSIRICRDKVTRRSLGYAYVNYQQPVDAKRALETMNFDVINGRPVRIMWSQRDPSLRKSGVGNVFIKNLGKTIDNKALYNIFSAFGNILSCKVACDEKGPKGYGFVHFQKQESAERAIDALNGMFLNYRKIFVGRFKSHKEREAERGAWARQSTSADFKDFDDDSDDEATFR
Sequence | 7-mer Z-score
AGGGCCA | 0.305
GUCCAGA | -0.0464
ACCUUAC | -0.229
GCCGACC | -0.171
UCAGGAG | 0.162
AUAAGAU | -0.0101
UAGGAAA | 0.572
UAUUCAC | -0.231
AAAUCUA | 0.693
CCAGCCA | -0.219
GCGUUAU | -0.333
ACCUAUC | -0.233
UUCGGCU | -0.409
ACGGACC | 0.0189
UUCCUCG | -0.396
AUAGCGU | -0.199
UUUGCUC | -0.46
CGCACAA | -0.0192

For quick reference, copied from above (set 2):
Sequence | RBNS enrichment (R)
ACCACUACACUUUUAGAAAGACAGAAAAAUGUAAGAAUUUGUUUUUACCAUAAUGAGUCUUAAGUAGGUUCAUGAUCUACAUUGGGGCCUGGGAUUAUUUUUUUAAUUUU | 0.602
GGUGACUCUGUGUGAACUGGCCUUUGGGAAAGAUCAGAGAGGGCAGAGGUGGCACAGGACAGUAAAGGAGAUGCUGUGCUGGCCUUCAGCCUGGACAGGGUCUCUGCUGA | 0.448
UGUCACACAAGCAUCUCAAAGUCAAAAGCCAUCUGGGGCUGCUGCUUCUGUUUCUCAGGCUCUGGGGAAAGGAAUCUCCCUCUCCUCUCACUUGAUUCCAAGUGUGGUUG | 0.378
GCCUUUGUCCGAAAAAUCUAUACUAAUGUGAAAAUUGACUAGAGACCCAAGAAAACCUGGAACUUUGGAUCAAUUUCUUUUUCAUAGGGGUGGAACUUGCACAGCAAAAA | 0.336
AGAGCCUGCUCCCCCACCCCCUCCCCAGGGGAGAGGGUCUGGAGAAGCAGUGAGCCGCAUCUUCUCCAUCUGGCAGGGUGGGAUGGAGGAGAAGAAUUUUCAGACCCCAG | 0.45
UUGUUGCUGUGCCAACAUCCUAGAUUGUACUUACACAACCUACAUGGUAUAGCCUACUACACACCUGGGCUGUGUGGCAUGGCCUAUUCCUCUUAGGCUACAAACCUGUA | 0.273
UAACCAUAAUACUGUGAUCAUUAUUUGGAAAUAUGUCCUAUGGAAAGAAUAAAAGCAUGUACUUCACAGCUAGCAUGUUCACAGAUUUGAAAGAAGUUUCAUUAAAAGCA | 4.28
